{"data": "Published values from different studies", "note": "Numbered parts are unrelated; each lists some results of a single study."}
{"data": "Sample 1", "target": "RING finger protein unkempt homolog, zinc fingers 1-6, GST-SBP tag (UNK, Homo sapiens, UniProt Q9C0B0, residues 30-357)", "technique": "RNA Bind-n-Seq", "molecule type": "RNA", "matrix": "in vitro", "tested at": "not given", "notes": "RNA with constant flanks, human and mouse sites, ends assumed", "relative to": "input RNA pool", "direction": "higher = stronger binding", "constant ends, left off below": "GGGAGUUCUACAGUCCGACGAUC … CAACAGAGGAUUGAGCAUCA", "sequence of UniProt Q9C0B0 (30-357, looked up)": "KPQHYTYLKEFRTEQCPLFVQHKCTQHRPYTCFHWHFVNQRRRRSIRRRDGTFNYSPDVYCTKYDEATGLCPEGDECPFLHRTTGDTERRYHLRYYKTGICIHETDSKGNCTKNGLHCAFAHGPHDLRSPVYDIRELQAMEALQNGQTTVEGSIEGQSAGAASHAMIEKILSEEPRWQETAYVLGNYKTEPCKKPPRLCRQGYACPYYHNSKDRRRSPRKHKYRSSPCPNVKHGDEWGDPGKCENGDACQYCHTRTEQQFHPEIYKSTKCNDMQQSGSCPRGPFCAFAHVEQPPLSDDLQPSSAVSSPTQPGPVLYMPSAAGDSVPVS"}
{"Oligonucleotide": "AAGAAGAAGCAAGGGGAAGAUAACUCUCACACACAGGACACAGAAGACCUAGAAAAGGACACUAGAGAAGAGCUUCCAGUGAAUACCUCAAAAGCCCGACCAAAACAGGAGAAAGCUUGU", "bound/input enrichment [ratio]": 0.587}
{"Oligonucleotide": "AAUUCCCAGAUAAGGCUUUUGCUGAGAGAUGGAAUGAGAAUGUUCACUGUCUCUCUGAAGAUUCAACUGUGCUUGAAGUCCUACAGAAACAUUUCAGUGUCAACAAAAACUUGCAGUCAU", "bound/input enrichment [ratio]": 0.113}
{"Oligonucleotide": "GAUCUUGGACUUGAUAUUGGUGCCCAGGGAGAACCCCUUGGAUAUCGCCAGGAUGAUCCUAGCUAUCGUUCUUUUCACUCUGGUGGAUAUGGCCAGGAUGCCUUGGGUAUGGACCCCAUG", "bound/input enrichment [ratio]": 0.152}
{"Oligonucleotide": "CCGAAGCCUUUCUCUCAAAUCUAGUAGUUAACAAGACCAUCUUUGCUAAAGUAGACAGAUUAGCAGGAAUUAUCAACUUCCAGAGACCCAAGGAUCCAAAUAAUUUAUUAAAUGACUGGU", "bound/input enrichment [ratio]": 2.61}
{"Oligonucleotide": "CCAGGGACCCCCACUCGGACACCUUCCAGAAUGGCGCCUGGAGCCCUGACUGCCAAACCCCCGCUUGCCCCCAAGCCGGGGACCACAGUGGCUUCAGGAGUGACUGCACGGGGUGGAGUA", "bound/input enrichment [ratio]": 0.131}
{"Oligonucleotide": "AUGAAUCAUGCCUGUAUGCUGUUUGUAGAAAAUUAUGGACAGAAAAUAAUUAAGAAGAAUUUAUGUCGAAACUUCAUGCUUCAUCUAGUCAGCAUGCAUGACUUUAAUCUUAUUAGCAUA", "bound/input enrichment [ratio]": 0.661}
{"Oligonucleotide": "CGGACUGCUGGAGAUGGUGGAGUCCGUCAUGCCGGUGGUGGUGUGCACAUUGAGCCCCGGUAUAGACAGUUCCCCCAGCUGACCAGAUCCCAGGUGUUCCAGAGCGAGUUCUUCAGCGGA", "bound/input enrichment [ratio]": 0.0623}
{"Oligonucleotide": "GGAAAAGCGAGGUAAUUGUGAGCCCAGGGUGGGGCGUGCUGGAUGGGGGCCGGCAUUGGAAGGGGUGACCCUGGGAGCUGGGCUGCAUUACAGACUCACCCCUUUGUCCCAUUCCCUGGG", "bound/input enrichment [ratio]": 0.359}
{"Oligonucleotide": "AUUGAGUGGGGAGCUUGUGCACUUGUUCUCACAGGAAACACAGUCAUCUUUGCAACUAUACUAGGCUUUUUCUUGGUCUUUGGAAGCAAUGACGACUUCAGCUGGCAGCAGUGGUGAAAA", "bound/input enrichment [ratio]": 0.378}
{"data": "Sample 2", "target": "Prothrombin, mature alpha-thrombin (F2, Homo sapiens, UniProt P00734)", "technique": "aptamer microarray, sandwich", "molecule type": "DNA with 2'F-ANA", "matrix": "in vitro", "tested at": "200 nM", "notes": "whole 15-mer aptamer, many near background", "added": "Cy3 exosite-II aptamer, 400 nM", "direction": "higher = stronger binding", "oligonucleotide": "GGTTGGTGTGGTTGG"}
{"Modification": "2'F-ANA at 1 3 4 5 6 7 8 9 11 12 15", "mean fluorescence intensity": "96.2 a.u."}
{"Modification": "2'F-ANA at 4 7 13 15", "mean fluorescence intensity": "222 a.u."}
{"Modification": "2'F-ANA at 2 4 5 6 7", "mean fluorescence intensity": "70.6 a.u."}
{"Modification": "2'F-ANA at 5 6 7 8 9 11 13 14", "mean fluorescence intensity": "45.9 a.u."}
{"Modification": "2'F-ANA at 1 3 4 5 7 8 10 13 14 15", "mean fluorescence intensity": "49.9 a.u."}
{"Modification": "2'F-ANA at 2 6 7 8 11 14", "mean fluorescence intensity": "138 a.u."}
{"Modification": "2'F-ANA at 3 4 7 9 11 12 13 14", "mean fluorescence intensity": "368 a.u."}
{"data": "Sample 3", "target": "RNA binding protein fox-1 homolog 2, RRM domain, GST-SBP tag (RBFOX2, Homo sapiens, UniProt O43251-10, residues 100-194)", "technique": "RNA Bind-n-Seq", "molecule type": "RNA", "matrix": "in vitro", "tested at": "365 nM", "notes": "natural RNA segment, single round, ends assumed", "relative to": "no-protein control", "direction": "higher = stronger binding", "constant ends, left off below": "GGGAGUUCUACAGUCCGACGAUC … UGGAAUUCUCGGGUGCCAA", "Residues (chain)": "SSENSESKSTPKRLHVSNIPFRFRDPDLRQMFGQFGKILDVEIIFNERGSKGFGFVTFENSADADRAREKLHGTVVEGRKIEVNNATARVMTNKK"}
{"Oligonucleotide": "CUGUUCAGUUUAAAAUACUGUAGAUAAUUAACCAAGGUAGAAUGACCUUGUAAUGUAACUGCUCUUGGGCAAUAUUCUCUGUACAUAUUAGCGACAACAGAUUGGAUUUU", "RBNS enrichment (R)": 1.13}
{"Oligonucleotide": "UAUAGCUGUUGUGUUUAAAAAUUGAAAAAAGUGGAAAACAUCUUUGUACAUUUAAGUCUGUAUUAUAAUAAGCAAAAAGAUUGUGUGUAUGUAUGUUUAAUAUAACAUGA", "RBNS enrichment (R)": 0.762}
{"Oligonucleotide": "UACUUUGUCCAUAAAAUUAUAAUUGUUUAUGUAAUUUUAUUGUUUCUUAUGGAAACAAUUGGAAAAGUAUAUGGAAAAUGAUUAUUUCAAAGAAUAUUUAUUUAAAGAGG", "RBNS enrichment (R)": 0.582}
{"Oligonucleotide": "UAUGUGAGUAGUCUUAUGUAAAGUAUGUUUUUACAUUAUGCAAAUAAAACCCAAUACUUUUGUCCAAUGUGGUUGGUCAAAUCAACUGAAUAAAUUCAGUAUUUUGCCUU", "RBNS enrichment (R)": 0.621}
{"Oligonucleotide": "UUUCUAGCAAAACAUGUUUUUAACCAUCAGUGCUCAAUUGCAUUUUCUUCCUUUCGCAGCCAGUCAGUCUUUCAAACUAUUGACAGUAAGAUAAUUCUCACGUUCACACC", "RBNS enrichment (R)": 0.966}
{"Oligonucleotide": "AUCUGAAUCAGGAUAGAACACCCAUUAGUCAUUUUCCCCCCACAAAGCAGCAUUCUGCCUGAAGCAGGUAGAAGGCUUUGCUGCUCAUGGAAGCUGGUAGGGAACUUAAA", "RBNS enrichment (R)": 0.34}
{"data": "Further values, each from its own experiment"}
{"Molecule": "PhoQ, residues 284 288 289 292 302 303 AAQSYM", "target": "PhoP, residues 12 14 15 18 19 SEGLL (Escherichia coli, UniProt P23836)", "test": "Sort-seq, refers to: YFP reporter", "system": "E. coli", "setting": "PhoQ-PhoP variant library, added: 10 µM Mg2+", "how to read": "relative to: high Mg2+ state, higher = stronger signaling", "endpoint": "fold induction", "value": 8.6}
{"note": "Some of these lines once more (sample 2):"}
{"Modification": "2'F-ANA at 4 7 13 15", "mean fluorescence intensity": "222 a.u."}
{"Modification": "2'F-ANA at 2 4 5 6 7", "mean fluorescence intensity": "70.6 a.u."}
{"Modification": "2'F-ANA at 1 3 4 5 7 8 10 13 14 15", "mean fluorescence intensity": "49.9 a.u."}
